Results pooled from the literature.
Each line is one published result; not all experiments were run side by side. Positions of bridges follow the written chain, without caps; N, C: chain ends. No end group written: not given here.
RGS4 residues 19-end: RGS4 residues 19-end 19-205, Alexa Fluor 568 label (Rattus norvegicus, UniProt P49799)
Sequence of UniProt P49799 (whole entry, unmodified, looked up): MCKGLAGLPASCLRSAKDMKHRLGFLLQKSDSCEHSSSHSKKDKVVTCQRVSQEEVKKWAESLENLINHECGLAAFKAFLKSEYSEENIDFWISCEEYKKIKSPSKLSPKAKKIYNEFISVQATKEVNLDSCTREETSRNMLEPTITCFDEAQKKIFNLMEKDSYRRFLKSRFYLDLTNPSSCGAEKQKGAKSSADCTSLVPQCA
CNOT1/CNOT2/CNOT3/CNOT10/CNOT11/CNOT7/CNOT6/CNOT9 CCR4-NOT complex: CNOT1/CNOT2/CNOT3/CNOT10/CNOT11/CNOT7/CNOT6/CNOT9 CCR4-NOT complex 1-2376 (Homo sapiens)
Rag1: Rag1 384-1008 (Mus musculus, UniProt P15919)
Sequence of UniProt P15919 (whole entry, looked up): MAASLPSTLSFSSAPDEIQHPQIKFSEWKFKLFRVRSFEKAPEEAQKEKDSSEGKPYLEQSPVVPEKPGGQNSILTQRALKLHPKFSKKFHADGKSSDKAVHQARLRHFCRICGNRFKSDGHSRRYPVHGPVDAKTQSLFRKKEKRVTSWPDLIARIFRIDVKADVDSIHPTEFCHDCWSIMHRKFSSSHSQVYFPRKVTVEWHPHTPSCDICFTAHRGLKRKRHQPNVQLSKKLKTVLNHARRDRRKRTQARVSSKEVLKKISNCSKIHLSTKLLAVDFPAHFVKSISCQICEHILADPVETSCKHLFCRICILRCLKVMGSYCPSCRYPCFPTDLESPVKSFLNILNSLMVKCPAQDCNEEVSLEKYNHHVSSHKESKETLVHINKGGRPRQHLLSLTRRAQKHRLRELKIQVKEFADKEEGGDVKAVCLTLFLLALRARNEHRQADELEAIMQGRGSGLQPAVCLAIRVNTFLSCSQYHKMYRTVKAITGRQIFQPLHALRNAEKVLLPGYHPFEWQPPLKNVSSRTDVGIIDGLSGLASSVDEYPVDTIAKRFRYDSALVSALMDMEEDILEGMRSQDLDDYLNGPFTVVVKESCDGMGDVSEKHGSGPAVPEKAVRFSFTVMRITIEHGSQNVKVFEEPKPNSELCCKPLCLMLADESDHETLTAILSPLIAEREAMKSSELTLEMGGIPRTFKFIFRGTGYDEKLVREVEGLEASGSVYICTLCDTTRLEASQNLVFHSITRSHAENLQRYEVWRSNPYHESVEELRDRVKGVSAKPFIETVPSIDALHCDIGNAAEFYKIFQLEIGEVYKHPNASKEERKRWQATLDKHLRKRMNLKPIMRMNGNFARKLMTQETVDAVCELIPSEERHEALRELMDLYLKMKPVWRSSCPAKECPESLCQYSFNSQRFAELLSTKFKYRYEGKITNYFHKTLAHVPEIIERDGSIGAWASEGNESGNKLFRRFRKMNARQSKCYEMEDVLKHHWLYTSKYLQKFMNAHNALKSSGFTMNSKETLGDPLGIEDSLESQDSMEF
RGS4 residues 52-end: RGS4 residues 52-end 52-205, Alexa Fluor 532 label (Homo sapiens, UniProt P49798)
Sequence of UniProt P49798 (whole entry, unmodified, looked up): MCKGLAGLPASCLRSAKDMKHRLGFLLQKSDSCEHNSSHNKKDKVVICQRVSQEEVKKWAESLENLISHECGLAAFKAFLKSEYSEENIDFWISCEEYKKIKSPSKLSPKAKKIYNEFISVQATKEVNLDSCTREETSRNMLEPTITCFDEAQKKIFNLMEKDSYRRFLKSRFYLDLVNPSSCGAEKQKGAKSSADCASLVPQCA
B1: SEC66 (Saccharomyces cerevisiae, UniProt P33754); glycosylated; lysines PEGylated; sequence looked up; chain MSEFNETKFSNNGTFFETEEPIVETKSISVYTPLIYVFILVVSLVMFASSYRKKQAKKISEQPSIFDENDAHDLYFQIKEMSENEKIHEKVLKAALLNRGAESVRRSLKLKELAPQINLLYKNGSIGEDYWKRFETEVKLIELEFKDTLQEAERLQPGWVQLFVMVCKEICFNQALSRRYQSILKRKEVCIKEWELKINNDGRLVN
B2: pum 1091-1426 (Drosophila melanogaster, UniProt P25822-1); chain GRSRLLEDFRNQRYPNLQLRDLANHIVEFSQDQHGSRFIQQKLERATAAEKQMVFSEILAAAYSLMTDVFGNYVIQKFFEFGTPEQKNTLGMQVKGHVLQLALQMYGCRVIQKALESISPEQQQEIVHELDGHVLKCVKDQNGNHVVQKCIECVDPVALQFIINAFKGQVYSLSTHPYGCRVIQRILEHCTAEQTTPILDELHEHTEQLIQDQYGNYVIQHVLEHGKQEDKSILINSVRGKVLVLSQHKFASNVVEKCVTHATRGERTGLIDEVCTFNDNALHVMMKDQYANYVVQKMIDVSEPTQLKKLMTKIRPHMAALRKYTYGKHINAKLEK
B3: Rag2 1-387 (Mus musculus, UniProt P21784); sequence looked up; chain MSLQMVTVGHNIALIQPGFSLMNFDGQVFFFGQKGWPKRSCPTGVFHFDIKQNHLKLKPAIFSKDSCYLPPLRYPATCSYKGSIDSDKHQYIIHGGKTPNNELSDKIYIMSVACKNNKKVTFRCTEKDLVGDVPEPRYGHSIDVVYSRGKSMGVLFGGRSYMPSTQRTTEKWNSVADCLPHVFLIDFEFGCATSYILPELQDGLSFHVSIARNDTVYILGGHSLASNIRPANLYRIRVDLPLGTPAVNCTVLPGGISVSSAILTQTNNDEFVIVGGYQLENQKRMVCSLVSLGDNTIEISEMETPDWTSDIKHSKIWFGSNMGNGTIFLGIPGDNKQAMSEAFYFYTLRCSEEDLSEDQKIVSNSQTSTEDPGDSTPFEDSEEFCFS
B4: pum 1-378 (Drosophila melanogaster, UniProt P25822-1); sequence looked up; chain MKFLGGNDDRNGRGGVGVGTDAIVGSRGGVSQDAADAAGAAAAAAVGYVFQQRPSPGGVGVGVGGVGGGVPGVGAVGSTLHEAAAAEYAAHFAQKQQQTRWACGDDGHGIDNPDKWKYNPPMNPANAAPGGPPGNGSNGGPGAIGTIGMGSGLGGGGGGGAGGGNNGGSGTNGGLHHQSMAAAAANMAAMQQAAALAKHNHMISQAAAAVAAQQQHQHPHQQHPQQQQQQQQAQNQGHPHHLMGGGNGLGNGNGLGIQHPGQQQQQQQQQQQQQHPGQYNANLLNHAAALGHMSSYAQSGGSMYDHHGGAMHPGMNGGMPKQQPLGPPGAGGPQDYVYMGGQTTVPMGAAMMPPQNQYMNSSAVAAANRNAAITTSTA
B5: ACAT1 (Homo sapiens, UniProt P24752); sequence looked up; chain VSKPTLKEVVIVSATRTPIGSFLGSLSLLPATKLGSIAIQGAIEKAGIPKEEVKEAYMGNVLQGGEGQAPTRQAVLGAGLPISTPCTTINKVCASGMKAIMMASQSLMCGHQDVMVAGGMESMSNVPYVMNRGSTPYGGVKLEDLIVKDGLTDVYNKIHMGSCAENTAKKLNIARNEQDAYAINSYTRSKAAWEAGKFGNEVIPVTVTVKGQPDVVVKEDEEYKRVDFSKVPKLKTVFQKENGTVTAANASTLNDGAAALVLMTADAAKRLNVTPLARIVAFADAAVEPIDFPIAPVYAASMVLKDVGLKKEDIAMWEVNEAFSLVVLANIKMLEIDPQKVNINGGAVSLGHPIGMSGARIVGHLTHALKQGEYGLASICNGGGGASAMLIQKL
B6: NAS6 1-228 (Saccharomyces cerevisiae, UniProt P50086); chain MSNYPLHQACMENEFFKVQELLHSKPSLLLQKDQDGRIPLHWSVSFQAHEITSFLLSKMENVNLDDYPDDSGWTPFHIACSVGNLEVVKSLYDRPLKPDLNKITNQGVTCLHLAVGKKWFEVSQFLIENGASVRIKDKFNQIPLHRAASVGSLKLIELLCGLGKSAVNWQDKQGWTPLFHALAEGHGDAAVLLVEKYGAEYDLVDNKGAKAEDVALNEQVKKFFLNNV
B7: ftsZ (Bacillus subtilis, UniProt P17865); sequence looked up; chain MLEFETNIDGLASIKVIGVGGGGNNAVNRMIENEVQGVEYIAVNTDAQALNLSKAEVKMQIGAKLTRGLGAGANPEVGKKAAEESKEQIEEALKGADMVFVTAGMGGGTGTGAAPVIAQIAKDLGALTVGVVTRPFTFEGRKRQLQAAGGISAMKEAVDTLIVIPNDRILEIVDKNTPMLEAFREADNVLRQGVQGISDLIATPGLINLDFADVKTIMSNKGSALMGIGIATGENRAAEAAKKAISSPLLEAAIDGAQGVLMNITGGTNLSLYEVQEAADIVASASDQDVNMIFGSVINENLKDEIVVTVIATGFIEQEKDVTKPQRPSLNQSIKTHNQSVPKREPKREEPQQQNTVSRHTSQPADDTLDIPTFLRNRNKRG
B8: CDC14 C283S (Saccharomyces cerevisiae, UniProt Q00684); sequence looked up; chain MRRSVYLDNTIEFLRGRVYLGAYDYTPEDTDELVFFTVEDAIFYNSFHLDFGPMNIGHLYRFAVIFHEILNDPENANKAVVFYSSASTRQRANAACMLCCYMILVQAWTPHQVLQPLAQVDPPFMPFRDAGYSNADFEITIQDVVYGVWRAKEKGLIDLHSFNLESYEKYEHVEFGDFNVLTPDFIAFASPQEDHPKGYLATKSSHLNQPFKSVLNFFANNNVQLVVRLNSHLYNKKHFEDIGIQHLDLIFEDGTCPDLSIVKNFVGAAETIIKRGGKIAVHSKAGLGRTGCLIGAHLIYTYGFTANECIGFLRFIRPGMVVGPQQHWLYLHQNDFREWKYTTRISLKPSEAIGGLYPLISLEEYRLQKKKLKDDKRVAQNNIEGELRDLTMTPPSNGHGALSARNSSQPSTANNGSNSFKSSAVPQTSPGQPRKGQNGSNTIEDINNNRNPTSHANRKVVIESNNSDDESMQDTNGTSNHYPKVSRKKNDISSASSSRMEDNEPSATNINNAADDTILRQLLPKNRRVTSGRRTTSAAGGIRKISGSIKK
B9: SMAD4 273-552 (Homo sapiens, UniProt Q13485); sequence looked up; chain TAPYTPNLPHHQNGHLQHHPPMPPHPGHYWPVHNELAFQPPISNHPAPEYWCSIAYFEMDVQVGETFKVPSSCPIVTVDGYVDPSGGDRFCLGQLSNVHRTEAIERARLHIGKGVQLECKGEGDVWVRCLSDHAVFVQSYYLDREAGRAPGDAVHKIYPSAYIKVFDLRQCHRQMQQQAATAQAAAAAQAAAVAGNIPGPGSVGGIAPAISLSAAAGIGVDDLRRLCILRMSFVKGWGPDYPRQSIKETPCWIEIHLHRALQLLDEVLHTMPIADPQPLD
B10: PPP1R15B 636-698 (Homo sapiens, UniProt Q5SWA1); chain VKRKKVTFLEEVTEYYISGDEDRKGPWEEFARDGCRFQKRIQETEDAIGYCLTFEHRERMFNR
B11: ZW10 (Homo sapiens, UniProt O43264); chain MASFVTEVLAHSGRLEKEDLGTRISRLTRRVEEIKGEVCNMISKKYSEFLPSMQSAQGLITQVDKLSEDIDLLKSRIESEVRRDLHVSTGEFTDLKQQLERDSVVLSLLKQLQEFSTAIEEYNCALTEKKYVTGAQRLEEAQKCLKLLKSRKCFDLKILKSLSMELTIQKQNILYHLGEEWQKLIVWKFPPSKDTSSLESYLQTELHLYTEQSHKEEKTPMPPISSVLLAFSVLGELHSKLKSFGQMLLKYILRPLASCPSLHAVIESQPNIVIIRFESIMTNLEYPSPSEVFTKIRLVLEVLQKQLLDLPLDTDLENEKTSTVPLAEMLGDMIWEDLSECLIKNCLVYSIPTNSSKLQQYEEIIQSTEEFENALKEMRFLKGDTTDLLKYARNINSHFANKKCQDVIVAARNLMTSEIHNTVKIIPDSKINVPELPTPDEDNKLEVQKVSNTQYHEVMNLEPENTLDQHSFSLPTCRISESVKKLMELAYQTLLEATTSSDQCAVQLFYSVRNIFHLFHDVVPTYHKENLQKLPQLAAIHHNNCMYIAHHLLTLGHQFRLRLAPILCDGTATFVDLVPGFRRLGTECFLAQMRAQKGELLERLSSARNFSNMDDEENYSAASKAVRQVLHQLKRLGIVWQDVLPVNIYCKAMGTLLNTAISEVIGKITALEDISTEDGDRLYSLCKTVMDEGPQVFAPLSEESKNKKYQEEVPVYVPKWMPFKELMMMLQASLQEIGDRWADGKGPLAAAFSSSEVKALIRALFQNTERRAAALAKIK
Sequence of UniProt P62136 (whole entry, looked up): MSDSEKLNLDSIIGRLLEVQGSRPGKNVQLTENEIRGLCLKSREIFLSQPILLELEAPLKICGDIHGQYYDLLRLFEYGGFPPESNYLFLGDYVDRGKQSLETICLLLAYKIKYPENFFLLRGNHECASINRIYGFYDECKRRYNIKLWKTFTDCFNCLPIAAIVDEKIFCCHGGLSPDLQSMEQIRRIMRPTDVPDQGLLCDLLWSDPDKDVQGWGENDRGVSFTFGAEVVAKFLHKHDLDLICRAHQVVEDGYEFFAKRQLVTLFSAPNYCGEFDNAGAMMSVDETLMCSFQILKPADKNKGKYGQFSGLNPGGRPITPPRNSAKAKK
Sequence of UniProt Q15796 (whole entry, looked up): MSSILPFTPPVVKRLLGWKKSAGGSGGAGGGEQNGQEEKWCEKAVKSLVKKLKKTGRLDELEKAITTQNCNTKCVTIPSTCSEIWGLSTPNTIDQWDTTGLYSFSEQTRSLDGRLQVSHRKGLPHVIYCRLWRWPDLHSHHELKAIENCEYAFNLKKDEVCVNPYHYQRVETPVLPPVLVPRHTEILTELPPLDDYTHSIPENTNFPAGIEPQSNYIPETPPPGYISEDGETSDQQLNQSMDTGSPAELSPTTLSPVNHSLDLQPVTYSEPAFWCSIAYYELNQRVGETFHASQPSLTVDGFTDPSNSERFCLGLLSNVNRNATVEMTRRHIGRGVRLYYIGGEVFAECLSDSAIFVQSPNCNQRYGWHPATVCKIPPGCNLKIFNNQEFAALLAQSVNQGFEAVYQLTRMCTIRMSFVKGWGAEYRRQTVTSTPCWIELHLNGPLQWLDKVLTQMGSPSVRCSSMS
Sequence of UniProt P14906 (whole entry, looked up): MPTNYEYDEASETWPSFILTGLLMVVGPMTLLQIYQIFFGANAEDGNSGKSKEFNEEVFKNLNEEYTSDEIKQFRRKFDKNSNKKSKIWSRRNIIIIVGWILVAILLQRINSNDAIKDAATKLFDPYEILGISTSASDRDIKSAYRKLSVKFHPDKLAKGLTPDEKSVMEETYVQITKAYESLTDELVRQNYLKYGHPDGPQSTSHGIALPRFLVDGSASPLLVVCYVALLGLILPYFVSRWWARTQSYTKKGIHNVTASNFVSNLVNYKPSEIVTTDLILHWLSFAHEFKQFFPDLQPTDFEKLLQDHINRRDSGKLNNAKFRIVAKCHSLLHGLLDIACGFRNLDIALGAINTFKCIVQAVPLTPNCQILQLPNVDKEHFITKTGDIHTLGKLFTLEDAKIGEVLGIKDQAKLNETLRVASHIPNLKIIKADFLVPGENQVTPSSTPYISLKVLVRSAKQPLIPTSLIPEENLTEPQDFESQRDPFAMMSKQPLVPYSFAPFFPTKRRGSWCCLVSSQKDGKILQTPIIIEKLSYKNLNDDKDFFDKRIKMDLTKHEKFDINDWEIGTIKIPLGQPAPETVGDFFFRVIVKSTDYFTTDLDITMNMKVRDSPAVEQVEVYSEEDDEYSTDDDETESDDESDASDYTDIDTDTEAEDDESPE
Sequence of UniProt Q06628 (whole entry, looked up): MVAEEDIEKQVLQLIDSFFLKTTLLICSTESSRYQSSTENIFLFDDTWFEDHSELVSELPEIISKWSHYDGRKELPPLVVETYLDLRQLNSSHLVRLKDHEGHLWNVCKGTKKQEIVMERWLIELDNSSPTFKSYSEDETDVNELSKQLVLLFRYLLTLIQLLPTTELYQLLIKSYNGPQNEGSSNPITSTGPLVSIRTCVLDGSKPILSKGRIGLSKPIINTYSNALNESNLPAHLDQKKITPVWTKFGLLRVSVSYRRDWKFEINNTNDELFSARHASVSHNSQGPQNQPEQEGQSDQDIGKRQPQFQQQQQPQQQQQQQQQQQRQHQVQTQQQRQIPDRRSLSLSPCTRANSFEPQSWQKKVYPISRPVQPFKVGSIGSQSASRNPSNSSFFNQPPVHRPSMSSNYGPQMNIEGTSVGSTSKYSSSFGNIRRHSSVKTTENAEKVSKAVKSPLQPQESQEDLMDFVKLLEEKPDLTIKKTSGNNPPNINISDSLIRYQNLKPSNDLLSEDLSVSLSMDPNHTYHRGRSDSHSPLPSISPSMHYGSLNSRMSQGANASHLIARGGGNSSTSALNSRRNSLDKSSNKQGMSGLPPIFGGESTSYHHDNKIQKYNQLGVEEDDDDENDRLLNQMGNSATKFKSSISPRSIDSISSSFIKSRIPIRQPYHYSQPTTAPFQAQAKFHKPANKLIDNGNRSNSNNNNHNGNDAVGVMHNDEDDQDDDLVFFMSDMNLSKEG
Sequence of UniProt O34894 (whole entry, unmodified, looked up): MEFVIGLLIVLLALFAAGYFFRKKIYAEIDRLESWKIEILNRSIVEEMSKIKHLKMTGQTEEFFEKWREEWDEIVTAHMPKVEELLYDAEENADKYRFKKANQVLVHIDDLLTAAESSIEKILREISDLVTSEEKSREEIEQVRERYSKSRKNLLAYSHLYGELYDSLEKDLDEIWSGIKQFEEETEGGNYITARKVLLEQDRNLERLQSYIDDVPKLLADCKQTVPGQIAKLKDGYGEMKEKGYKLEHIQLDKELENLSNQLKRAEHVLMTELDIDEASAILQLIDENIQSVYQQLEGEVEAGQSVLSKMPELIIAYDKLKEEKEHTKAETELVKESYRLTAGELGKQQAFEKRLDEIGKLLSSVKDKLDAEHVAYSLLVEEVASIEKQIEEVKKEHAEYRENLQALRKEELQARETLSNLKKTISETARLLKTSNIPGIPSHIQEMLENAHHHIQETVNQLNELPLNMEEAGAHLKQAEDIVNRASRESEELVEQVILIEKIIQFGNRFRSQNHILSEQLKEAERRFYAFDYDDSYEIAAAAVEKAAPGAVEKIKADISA

For `LVCKGYCQ-NH2 (designed peptide; disulfide 3-7; also: on OBOC bead: half N-acetylated, half free N-terminus; C-amide, Cys3-Cys7 disulfide, N-acetyl partial)`, binding read “binds” (RGS4 residues 19-end; fluorescence imaging of beads; peptide).
`B1 (SEC66)`: binding “binds” (SEC63, PEGylated surface lysines (Saccharomyces cerevisiae, UniProt P14906); cryo-EM).
`B2 (pum 1091-1426)` — result for binding: “binds” (CNOT1/CNOT2/CNOT3/CNOT10/CNOT11/CNOT7/CNOT6/CNOT9 CCR4-NOT complex; pull-down).
For `B3 (Rag2 1-387)`, binding read “binds” (Rag1; pull-down).
`YNCQGECE-NH2 (designed peptide; disulfide 3-7; also: on OBOC bead: half N-acetylated, half free N-terminus; half N-acetyl, half free N-terminus/C-amide/cyclic disulfide Cys3-Cys7)`: binding “binds” (RGS4 residues 19-end; fluorescence imaging of beads; peptide).
For `B4 (pum 1-378)`, binding read “binds” (CNOT1/CNOT2/CNOT3/CNOT10/CNOT11/CNOT7/CNOT6/CNOT9 CCR4-NOT complex; pull-down).
Under binding, `B5 (ACAT1)` is recorded as “binds” (PDP1 GST fusion Y94F (UniProt Q9P0J1); pull-down; phosphorylated partner).
`B3 (Rag2 1-387)` — result for binding: “binds” (Rag1; EMSA; mixed before DNA addition).
`Ac-YWCKGLCK-NH2 (designed peptide; disulfide 3-7; SMILES CC(=O)N[C@@H](Cc1ccc(O)cc1)C(=O)N[C@@H](Cc1c[nH]c2ccccc12)C(=O)N[C@H]1CSSC[C@@H](C(=O)N[C@@H](CCCCN)C(N)=O)NC(=O)[C@H](CC(C)C)NC(=O)CNC(=O)[C@H](CCCCN)NC1=O; N-acetyl, C-amide, Cys3-Cys7 disulfide)`: binding “binds” (RGS4 residues 52-end; flow cytometry; peptide; room temperature).
`B6 (NAS6 1-228)` — result for binding: “binds” (RPT1/RPT2/RPT3/RPT4/RPT5/RPT6/RPN1/RPN2/RPN13/RPN14/HSM3 base, Nas6-free (Saccharomyces cerevisiae); pull-down; 200 nM, 15 min, 30 °C, eviction assay, with: Nas6 200 nM).
Under binding, `H-KLCHGYCH-NH2 (designed peptide; disulfide 3-7; SMILES CC(C)C[C@H](NC(=O)[C@@H](N)CCCCN)C(=O)N[C@H]1CSSC[C@@H](C(=O)N[C@@H](Cc2c[nH]cn2)C(N)=O)NC(=O)[C@H](Cc2ccc(O)cc2)NC(=O)CNC(=O)[C@H](Cc2c[nH]cn2)NC1=O; free N-terminus/C-amide/cyclic disulfide Cys3-Cys7)` is recorded as “binds” (RGS4 residues 52-end; flow cytometry; peptide; room temperature).
`B7 (ftsZ)`: binding “binds” (ezrA 22-562 K135C/C222A (Bacillus subtilis, UniProt O34894); cross-linking).
For `B8 (CDC14 C283S)`, binding read “binds” (ATG13, hyperphosphorylated (Saccharomyces cerevisiae, UniProt Q06628); pull-down; hyperphosphorylated partner).
For `B9 (SMAD4 273-552)`, binding read “binds” (SMAD2 186-467 S-to-E phosphomimetic (Homo sapiens, UniProt Q15796); SEC; pH 8.0, 4 °C, NaCl 150 mM).
Under binding, `B10 (PPP1R15B 636-698)` is recorded as “binds” (PPP1CA 7-330 (Homo sapiens, UniProt P62136); MST; pH 7.4, with: Mn2+ 2 mM).
Under binding, `Ac-KHCYGFCK-NH2 (designed peptide; disulfide 3-7; SMILES CC(=O)N[C@@H](CCCCN)C(=O)N[C@@H](Cc1c[nH]cn1)C(=O)N[C@H]1CSSC[C@@H](C(=O)N[C@@H](CCCCN)C(N)=O)NC(=O)[C@H](Cc2ccccc2)NC(=O)CNC(=O)[C@H](Cc2ccc(O)cc2)NC1=O; N-acetyl/C-amide/cyclic disulfide Cys3-Cys7)` is recorded as “binds” (RGS4 residues 52-end; flow cytometry; peptide; room temperature).
Under binding, `B11 (ZW10)` is recorded as “binds” (MAD1L1/MAD2L1, pS546 on MAD1 (Homo sapiens); pull-down).

A few entries again:
`Ac-YWCKGLCK-NH2 (designed peptide; disulfide 3-7; SMILES CC(=O)N[C@@H](Cc1ccc(O)cc1)C(=O)N[C@@H](Cc1c[nH]c2ccccc12)C(=O)N[C@H]1CSSC[C@@H](C(=O)N[C@@H](CCCCN)C(N)=O)NC(=O)[C@H](CC(C)C)NC(=O)CNC(=O)[C@H](CCCCN)NC1=O; N-acetyl, C-amide, Cys3-Cys7 disulfide)`: binding “binds” (RGS4 residues 52-end; flow cytometry; peptide; room temperature).
Under binding, `Ac-KHCYGFCK-NH2 (designed peptide; disulfide 3-7; SMILES CC(=O)N[C@@H](CCCCN)C(=O)N[C@@H](Cc1c[nH]cn1)C(=O)N[C@H]1CSSC[C@@H](C(=O)N[C@@H](CCCCN)C(N)=O)NC(=O)[C@H](Cc2ccccc2)NC(=O)CNC(=O)[C@H](Cc2ccc(O)cc2)NC1=O; N-acetyl/C-amide/cyclic disulfide Cys3-Cys7)` is recorded as “binds” (RGS4 residues 52-end; flow cytometry; peptide; room temperature).
